Measured values from different studies.
Every numbered part comes from another study and shows a few of its results, in no order.
Chain of UniProt Q9UK32 (whole entry, looked up): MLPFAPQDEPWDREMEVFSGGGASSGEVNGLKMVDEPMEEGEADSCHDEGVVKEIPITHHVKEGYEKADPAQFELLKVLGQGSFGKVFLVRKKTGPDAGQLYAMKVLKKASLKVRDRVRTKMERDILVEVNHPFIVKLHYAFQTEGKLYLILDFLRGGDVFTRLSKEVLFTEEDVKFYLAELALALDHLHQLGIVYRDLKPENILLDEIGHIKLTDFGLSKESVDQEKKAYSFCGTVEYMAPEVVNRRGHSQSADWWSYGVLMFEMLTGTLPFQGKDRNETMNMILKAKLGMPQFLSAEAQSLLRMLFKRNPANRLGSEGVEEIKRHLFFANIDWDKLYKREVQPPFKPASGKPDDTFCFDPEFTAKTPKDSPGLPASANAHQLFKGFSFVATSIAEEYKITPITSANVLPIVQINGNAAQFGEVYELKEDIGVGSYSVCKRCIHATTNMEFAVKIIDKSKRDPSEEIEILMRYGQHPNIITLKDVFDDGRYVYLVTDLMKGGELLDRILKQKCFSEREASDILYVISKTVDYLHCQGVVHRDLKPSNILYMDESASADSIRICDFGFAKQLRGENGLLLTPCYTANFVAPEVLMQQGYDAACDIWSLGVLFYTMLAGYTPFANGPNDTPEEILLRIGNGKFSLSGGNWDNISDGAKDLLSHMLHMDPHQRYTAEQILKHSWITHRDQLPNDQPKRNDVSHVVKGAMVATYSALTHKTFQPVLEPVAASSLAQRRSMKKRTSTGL
Chain of UniProt Q15569 (whole entry, looked up): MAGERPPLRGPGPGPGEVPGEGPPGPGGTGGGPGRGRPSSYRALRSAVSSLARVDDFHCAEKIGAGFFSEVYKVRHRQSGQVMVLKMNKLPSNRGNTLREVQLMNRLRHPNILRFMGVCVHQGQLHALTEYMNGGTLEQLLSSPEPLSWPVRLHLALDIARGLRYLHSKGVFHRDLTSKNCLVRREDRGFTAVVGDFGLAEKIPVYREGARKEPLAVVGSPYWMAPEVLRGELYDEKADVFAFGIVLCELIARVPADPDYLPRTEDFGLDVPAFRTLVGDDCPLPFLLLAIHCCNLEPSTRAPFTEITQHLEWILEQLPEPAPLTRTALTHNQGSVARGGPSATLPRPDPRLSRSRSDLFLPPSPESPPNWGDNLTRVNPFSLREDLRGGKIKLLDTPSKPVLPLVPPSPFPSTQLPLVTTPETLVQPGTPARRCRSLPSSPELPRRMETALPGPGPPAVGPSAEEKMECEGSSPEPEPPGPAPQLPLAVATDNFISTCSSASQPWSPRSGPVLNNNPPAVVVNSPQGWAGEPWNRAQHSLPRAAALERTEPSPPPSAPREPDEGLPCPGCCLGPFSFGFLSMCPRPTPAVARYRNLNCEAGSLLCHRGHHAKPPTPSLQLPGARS
Chain of UniProt Q6XUX3 (whole entry, looked up): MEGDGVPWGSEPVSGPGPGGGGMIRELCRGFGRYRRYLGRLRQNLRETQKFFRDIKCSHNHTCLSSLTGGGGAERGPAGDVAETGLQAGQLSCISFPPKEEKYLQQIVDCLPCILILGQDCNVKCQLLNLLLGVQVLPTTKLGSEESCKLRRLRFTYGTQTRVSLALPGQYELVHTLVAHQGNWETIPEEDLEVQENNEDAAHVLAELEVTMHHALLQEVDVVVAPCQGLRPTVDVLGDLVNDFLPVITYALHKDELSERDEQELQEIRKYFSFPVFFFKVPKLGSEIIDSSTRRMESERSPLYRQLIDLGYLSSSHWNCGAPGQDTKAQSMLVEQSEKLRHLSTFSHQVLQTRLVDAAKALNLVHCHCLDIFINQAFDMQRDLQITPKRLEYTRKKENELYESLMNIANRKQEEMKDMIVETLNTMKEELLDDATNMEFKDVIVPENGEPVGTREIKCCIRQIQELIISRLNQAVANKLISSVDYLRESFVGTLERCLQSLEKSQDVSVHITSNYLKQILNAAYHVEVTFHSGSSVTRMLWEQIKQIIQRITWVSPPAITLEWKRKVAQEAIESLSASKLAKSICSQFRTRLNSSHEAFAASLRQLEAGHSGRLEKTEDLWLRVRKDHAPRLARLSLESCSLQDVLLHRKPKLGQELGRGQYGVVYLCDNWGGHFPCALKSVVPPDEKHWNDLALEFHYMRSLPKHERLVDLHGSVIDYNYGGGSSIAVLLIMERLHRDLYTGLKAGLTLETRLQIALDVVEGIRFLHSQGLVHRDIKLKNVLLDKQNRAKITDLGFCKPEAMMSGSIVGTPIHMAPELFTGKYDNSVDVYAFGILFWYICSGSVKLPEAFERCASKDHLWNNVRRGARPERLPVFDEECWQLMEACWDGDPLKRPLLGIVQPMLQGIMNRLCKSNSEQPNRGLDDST
Chain of UniProt Q56UN5 (whole entry, looked up): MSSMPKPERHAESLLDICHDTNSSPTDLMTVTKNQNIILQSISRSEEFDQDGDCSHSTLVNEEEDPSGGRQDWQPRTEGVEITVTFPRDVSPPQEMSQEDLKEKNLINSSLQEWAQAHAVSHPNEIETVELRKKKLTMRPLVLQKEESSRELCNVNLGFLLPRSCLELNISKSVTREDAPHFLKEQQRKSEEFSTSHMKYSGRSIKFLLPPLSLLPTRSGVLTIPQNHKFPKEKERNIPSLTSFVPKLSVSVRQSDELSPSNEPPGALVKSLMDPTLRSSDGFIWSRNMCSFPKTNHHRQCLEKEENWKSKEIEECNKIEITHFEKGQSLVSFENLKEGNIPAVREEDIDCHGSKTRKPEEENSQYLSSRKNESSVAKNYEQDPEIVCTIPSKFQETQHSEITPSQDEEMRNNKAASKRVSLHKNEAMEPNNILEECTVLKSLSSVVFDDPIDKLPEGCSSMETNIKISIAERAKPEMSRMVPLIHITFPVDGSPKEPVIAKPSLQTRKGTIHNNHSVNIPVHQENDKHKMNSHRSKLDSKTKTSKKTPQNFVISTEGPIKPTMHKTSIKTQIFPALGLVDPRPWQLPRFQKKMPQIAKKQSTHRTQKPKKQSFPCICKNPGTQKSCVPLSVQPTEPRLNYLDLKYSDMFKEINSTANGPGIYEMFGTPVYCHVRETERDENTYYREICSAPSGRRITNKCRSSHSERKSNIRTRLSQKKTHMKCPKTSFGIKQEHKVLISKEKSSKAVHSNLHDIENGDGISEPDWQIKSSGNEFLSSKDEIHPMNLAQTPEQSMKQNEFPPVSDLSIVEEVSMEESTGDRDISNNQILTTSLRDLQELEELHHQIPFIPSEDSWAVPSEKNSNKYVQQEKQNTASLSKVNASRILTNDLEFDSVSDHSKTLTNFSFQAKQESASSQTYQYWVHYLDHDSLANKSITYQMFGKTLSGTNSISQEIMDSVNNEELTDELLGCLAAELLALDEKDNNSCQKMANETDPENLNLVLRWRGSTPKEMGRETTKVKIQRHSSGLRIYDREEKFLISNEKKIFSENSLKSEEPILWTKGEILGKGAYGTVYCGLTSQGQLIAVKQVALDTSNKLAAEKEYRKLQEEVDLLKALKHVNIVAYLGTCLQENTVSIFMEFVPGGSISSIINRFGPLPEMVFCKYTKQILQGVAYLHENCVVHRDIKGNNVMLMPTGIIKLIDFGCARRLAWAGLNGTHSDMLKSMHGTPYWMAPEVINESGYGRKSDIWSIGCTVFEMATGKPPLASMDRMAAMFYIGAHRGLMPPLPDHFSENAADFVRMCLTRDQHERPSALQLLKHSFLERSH
Chain of UniProt O95747 (whole entry, looked up): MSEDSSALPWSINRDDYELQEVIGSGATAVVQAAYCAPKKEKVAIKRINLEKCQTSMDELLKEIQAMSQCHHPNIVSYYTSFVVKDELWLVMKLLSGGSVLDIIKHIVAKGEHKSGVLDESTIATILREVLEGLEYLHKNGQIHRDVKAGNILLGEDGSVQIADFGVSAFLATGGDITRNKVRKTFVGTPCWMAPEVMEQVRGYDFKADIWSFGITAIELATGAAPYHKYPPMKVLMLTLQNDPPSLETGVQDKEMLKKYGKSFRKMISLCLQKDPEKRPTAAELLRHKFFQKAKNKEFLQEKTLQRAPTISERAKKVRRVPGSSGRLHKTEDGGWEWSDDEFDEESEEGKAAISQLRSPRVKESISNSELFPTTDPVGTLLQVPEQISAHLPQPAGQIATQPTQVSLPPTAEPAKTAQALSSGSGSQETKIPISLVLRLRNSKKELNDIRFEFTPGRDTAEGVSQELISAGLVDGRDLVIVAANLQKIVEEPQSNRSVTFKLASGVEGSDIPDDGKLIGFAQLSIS
Chain of UniProt Q16816 (whole entry, looked up): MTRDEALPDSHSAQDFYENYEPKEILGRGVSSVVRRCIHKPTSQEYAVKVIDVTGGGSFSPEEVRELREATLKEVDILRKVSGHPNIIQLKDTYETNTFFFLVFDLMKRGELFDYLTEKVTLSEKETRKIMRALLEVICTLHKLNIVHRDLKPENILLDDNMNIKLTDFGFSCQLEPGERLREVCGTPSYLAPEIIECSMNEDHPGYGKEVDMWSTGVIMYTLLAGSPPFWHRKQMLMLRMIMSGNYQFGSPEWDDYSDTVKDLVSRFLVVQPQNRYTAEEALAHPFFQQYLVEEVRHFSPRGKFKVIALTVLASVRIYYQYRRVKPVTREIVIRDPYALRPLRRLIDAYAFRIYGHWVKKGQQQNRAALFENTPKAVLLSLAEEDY
Chain of UniProt Q8TBX8 (whole entry, looked up): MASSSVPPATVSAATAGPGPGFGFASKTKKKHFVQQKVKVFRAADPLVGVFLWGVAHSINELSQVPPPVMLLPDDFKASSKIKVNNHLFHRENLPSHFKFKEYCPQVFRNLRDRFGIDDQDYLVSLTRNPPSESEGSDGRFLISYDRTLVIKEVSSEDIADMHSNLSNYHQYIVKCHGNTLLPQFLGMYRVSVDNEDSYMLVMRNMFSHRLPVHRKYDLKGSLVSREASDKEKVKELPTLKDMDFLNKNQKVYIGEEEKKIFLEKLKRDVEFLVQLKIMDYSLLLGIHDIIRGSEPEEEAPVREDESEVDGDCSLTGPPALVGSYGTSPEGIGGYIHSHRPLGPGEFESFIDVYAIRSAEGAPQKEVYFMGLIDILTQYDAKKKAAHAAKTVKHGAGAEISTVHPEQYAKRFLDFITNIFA

Block 1 — tested at: 1 µM; endpoint: remaining binding
SMILES: COc1ccc2[nH]c3c4[nH]c5ccc(OC)cc5c4c4c(c3c2c1)C(=O)NC4=O
Dual specificity testis-specific protein kinase 1 (TESK1, Homo sapiens, UniProt Q15569); binding, competition with immobilised ligand: 90%
Tyrosine-protein kinase JAK1, JH1 (JAK1, Homo sapiens, UniProt P23458); cell-free assay, competition with immobilised ligand: 100%
Serine/threonine-protein kinase PLK4 (PLK4, Homo sapiens, UniProt O00444); binding, competition with immobilised ligand: 1.4%
Serine/threonine-protein kinase Nek9 (NEK9, Homo sapiens, UniProt Q8TD19); binding: 100%
Ribosomal protein S6 kinase alpha-6, C-terminal kinase domain (RPS6KA6, Homo sapiens, UniProt Q9UK32); binding, competition with immobilised ligand: 61%

Block 2 — cell line: mouse MPNST tumor cells; method: high-content immunofluorescence imaging; item: nuclear SOX9; tested at: 10 µM; time: 12 h; notes: mean of 2 replicates; relative to: DMSO control; direction: higher = more nuclear SOX9; endpoint: nuclear SOX9 intensity
CCC(C)CNCC(=O)N1CCc2sccc2C1COc1cccc(C)c1 (centres unmarked): 201 % of DMSO
CCN(CC)Cc1cc(Nc2ccnc3cc(Cl)ccc23)ccc1O: 172 % of DMSO
COC(=O)N/N=C/c1c[n+]([O-])c2ccccc2[n+]1[O-]: 99.2 % of DMSO

Block 3 — method: phase 2a trial; endpoint: patients with TEAE
Compound: CC(C)n1cnc(-c2ccc(F)cc2)c1-c1ncc(C(=O)Nc2ccc(N3CCN(C)CC3)cc2)[nH]1
patients with idiopathic pulmonary fibrosis; 30 mg once daily, eye swelling, grade 5: 0%
patients with idiopathic pulmonary fibrosis; 30 mg once daily, endocrine disorders SOC, grade 3: 0%
idiopathic pulmonary fibrosis patients; oral, 30 mg once daily, blood/lymphatic disorders, grade 4: 0%
patients with idiopathic pulmonary fibrosis; 60 mg once daily, atopic dermatitis, grade 1: 0%

Block 4 — species: human; medium: microsomes or S9; tested at: 2 µM; time: 0.5 h; endpoint: remaining compound
COCc1cc(C)nc2sc(-c3nc(N)nc(N(C)C)n3)c(N)c12: 14.5%
COC(=O)N1CC(C)CN(c2ccc(NC(=O)Nc3cc(C)ccc3OC)cc2)S1(=O)=O (centres unmarked): 52%
CNC(=O)COc1cccc2c1[C@@H]1O[C@H](C)CC[C@H]1[C@](C)(CCCC(C)C)O2: > 100%
CC(=O)Nc1ccc(-n2nnc(C(=O)NCCCN(C)C)c2N)cc1: 72.4%

Block 5 — organism: Sarcocystis neurona; read-out: parasite growth; tested at: concentration not given; notes: first screen; relative to: untreated; endpoint: log2 fold change
CCC(C)(C)N=C(NC#N)Nc1cccnc1: 0.1
COc1nc(C)nc(Cl)c1NC1=NCCN1.Cl: -0.1
CCOC(=O)c1ccc(OC(=O)CCCCCN=C(N)N)cc1.CS(=O)(=O)O: -0.15

Block 6 — read-out: cell-free assay; method: competition with immobilised ligand; tested at: 1 µM; endpoint: remaining binding
Compound: COc1ccc2c(c1)O[C@H](c1ccc(OC)c(OC)c1)C[C@@H]2NC(=O)C1(c2ccc3c(c2)OC(F)(F)O3)CC1
Receptor-type tyrosine-protein kinase FLT3 (FLT3, Homo sapiens, UniProt P36888, D835V/ITD): 72%
Serine/threonine-protein kinase Nek10 (NEK10, Homo sapiens, UniProt Q6ZWH5): 100%
cGMP-dependent protein kinase 2 (PRKG2, Homo sapiens, UniProt Q13237): 89%
Mitogen-activated protein kinase kinase kinase 19 (MAP3K19, Homo sapiens, UniProt Q56UN5): 100%
Mitogen-activated protein kinase kinase kinase 12 (MAP3K12, Homo sapiens, UniProt Q12852): 87%
Activin receptor type-2B (ACVR2B, Homo sapiens, UniProt Q13705): 100%
Mitogen-activated protein kinase kinase kinase kinase 1 (MAP4K1, Homo sapiens, UniProt Q92918): 98%
Cyclin-dependent kinase 8 (CDK8, Homo sapiens, UniProt P49336): 100%
Eukaryotic translation initiation factor 2-alpha kinase 1 (EIF2AK1, Homo sapiens, UniProt Q9BQI3): 100%
Phosphatidylinositol 5-phosphate 4-kinase type-2 gamma (PIP4K2C, Homo sapiens, UniProt Q8TBX8): 83%
BMP-2-inducible protein kinase (BMP2K, Homo sapiens, UniProt Q9NSY1): 100%
Phosphatidylinositol 4,5-bisphosphate 3-kinase catalytic subunit alpha isoform (PIK3CA, Homo sapiens, UniProt P42336, H1047Y): 100%
Serine/threonine-protein kinase OSR1 (OXSR1, Homo sapiens, UniProt O95747): 98%
Homeodomain-interacting protein kinase 4 (HIPK4, Homo sapiens, UniProt Q8NE63): 91%
Dual serine/threonine and tyrosine protein kinase (DSTYK, Homo sapiens, UniProt Q6XUX3): 94%
Phosphorylase b kinase gamma catalytic chain, skeletal muscle/heart isoform (PHKG1, Homo sapiens, UniProt Q16816): 100%

For quick reference, copied from above (block 4):
CNC(=O)COc1cccc2c1[C@@H]1O[C@H](C)CC[C@H]1[C@](C)(CCCC(C)C)O2: > 100%
COC(=O)N1CC(C)CN(c2ccc(NC(=O)Nc3cc(C)ccc3OC)cc2)S1(=O)=O (centres unmarked): 52%
COCc1cc(C)nc2sc(-c3nc(N)nc(N(C)C)n3)c(N)c12: 14.5%
CC(=O)Nc1ccc(-n2nnc(C(=O)NCCCN(C)C)c2N)cc1: 72.4%
